Measurements gathered from unrelated publications.
Protocols differ between the studies behind these lines. Values joined by “and” are separate records of one study, mostly repeats; a detail may differ. ± marks the error that the study gave.

Structure (SMILES)	assay	system	conditions	how to read	quantity	result
N[C@@H](C[18F])C(=O)O	PET	athymic nude mouse	intravenous, 90 min		maximum bone uptake	~26%
COc1c(N2C[C@@H]3CCCN[C@@H]3C2)c(F)cc2c(=O)c(C(=O)O)cn(C3CC3)c12		male Hartley guinea pigs, anaesthetized	intravenous, 5 mg/kg group, baseline before infusion		mean blood pressure	33 ± 0.2 mmHg
CNCCOC12CC3(C)CC(C)(CC(Cn4ncc(-c5ccc(N6CCc7cccc(C(=O)Nc8nc9ccccc9s8)c7C6)nc5C(=O)O)c4C)(C3)C1)C2		beagle dog, male, anaesthetised	intravenous bolus, 0.03 mg/kg, 60 min	relative to: baseline	mean arterial pressure change	-2%
Cc1ccc(C(=O)N(CCCN)C(c2nc3snc(C)c3c(=O)n2Cc2ccccc2)C(C)C)cc1 (stereo not drawn)	refers to: Hyperbilirubinemia	human patients	intravenous, 16 mg/day, CTCAE grade ≥3		patients with adverse events	0%
CNC(=O)c1ccc(-c2cnc3ncc(Cc4ccc5ncccc5c4)n3n2)cc1F	refers to: Hypoalbuminemia	cancer patients	oral, 600 mg twice daily, all expansion cohorts, grade 3-4		patients with adverse event	0%
O=C(COc1ccc(Cl)cc1)NC12CC(c3nnc([C@H]4C[C@@H](OC(F)(F)F)C4)o3)(C1)C2	moderate maximum severity	healthy human, both sexes	oral, dose not given, 14 days, multiple ascending dose, all doses		treatment-emergent adverse events	8.8%
COc1cc2[nH]c(C)c(-c3ccc(CO)cc3)c(=O)c2cc1Cl		PAMPA	pH 7.4		Papp	< 5 ×10⁻⁶ cm/s
COCc1cc(C(=O)Nc2cc([C@H]3CC[C@@H](OC(=O)NC(C)C)C3)[nH]n2)n(C)n1		OVCAR-3 xenograft, NOD/SCID gamma mice, plasma	oral, 25 twice daily, tumour growth inhibition study		unbound C24h	28 nM
[Cl-].c1csc([I+]c2cccs2)c1		athymic mouse	intraperitoneal, daily, five of seven days		maximum tolerated dose	6 mg/kg
Cc1nc(-c2ccc(OCC(C)C)c(C#N)c2)sc1C(=O)O		KM mouse, chronic hyperuricaemia model, serum	dose not given		AST	174 U/L and 185 U/L and 198 U/L and 172 U/L and 177 U/L
O=C(O)CCC(=O)O.[2H]C([2H])([2H])Oc1cc(C)c2[nH]ccc2c1CN1CC[C@@H](C2CC2)C[C@H]1c1ccc(C(=O)O)cc1		human, plasma	125 mg twice daily, day 10, multiple ascending dose		CLss/F	2.86 L/h
CSc1nc(C)c(Cl)c(O)n1		sheep erythrocytes	1 h, pH 7.5		maximum haemolysis	7%
CC(C)NCCCC[C@@H]1NC(=O)[C@H](Cc2ccc(O)cc2)NC(=O)[C@H](Cc2ccccc2)NC(=O)CC[C@H](C(=O)N[C@@H](CCCCNC(C)C)C(=O)N[C@@H](CCCCNC(=O)[C@H](CCC(=O)O)NC(=O)[C@H](CCC(=O)O)NC(=O)[C@H](CCC(=O)O)NC(=O)CN2CCN(CC(=O)O)CCN(CC(=O)O)CCN(CC(=O)O)CC2)C(N)=O)NC(=O)CNC(=O)[C@H](Cc2ccc3ccccc3c2)NC(=O)[C@@H](CCCNC(=N)N)NC1=O [gallium-68 labelled]		mouse with PC-3 xenograft, lung	intravenous, 1 h		tissue uptake	0.71 %ID/g
Cc1cc(NC(=O)c2cccc(NC(=O)/C=C/CN(C)C)c2)ccc1Nc1nccc(-c2cccnc2)n1		rat Wistar male, plasma	1 µM, 60 min		remaining compound	86.7%
COC(=O)CNC(=O)c1nc(Cl)c2ccccc2c1O					pKa (acidic)	5.8
Cc1cc(Nc2cc3ncccc3c(N[C@@H]3C[C@H]4CC[C@@H](C3)N4CCC#N)n2)n[nH]1		healthy human subjects	oral, 30 mg, 2 weeks, single ascending dose		pruritus incidence	0%
C=CC(=O)Nc1cc(Nc2nccc(-c3cn(C4CC4)c4ccccc34)n2)c(OC)cc1N(C)CCN(C)C		BALB/c nude mouse, LU0387 xenograft, serum	oral, 40 mg/kg		AST activity	98 ± 11.3 U/L
Cn1cc(Nc2nccc(-c3ccc4c(c3)CN(C3COC3)CC[C@H]4NC(=O)c3cn(C(C)(C)C)nn3)n2)cn1		human, whole blood	50 mg twice daily, day 14	relative to: pre-dose baseline	CD8+ T cell count change	-0.89%
O=C(OC(C(F)(F)F)C(F)(F)F)N1CCN(Cc2cccc(Oc3ccccc3)c2)CC1	PET blocking study	rhesus monkey, brain Pons	0.1 mg/kg, compound pretreatment, added: [18F]T-401 tracer		Ktrans	0.151 min⁻¹

Structure (SMILES)	assay	system	conditions	how to read	quantity	result
C[C@@H](Oc1ccc(S(C)(=O)=O)cc1C(=O)N1C[C@@H]2C[C@]2(c2cc(C(F)(F)F)on2)C1)C(F)(F)F		human	oral plus intravenous microtracer, dose not given		subjects with related somnolence	16.7%
CCCc1nc2c(C)cc(-c3nc4ccccc4n3C)cc2n1Cc1ccc(-c2ccccc2C(=O)O)cc1					pKa (basic)	5.8
N#C[C@@]1(c2ccc3c(N)ncnn23)O[C@H](CO)[C@@H](O)[C@H]1O		beagle dog, male, plasma	oral, 6.5 mg/kg, capsule		elimination rate constant	5.68e-05 s⁻¹
Cc1noc(C)c1-c1cc(C(O)(c2ccccn2)c2ccccn2)c2nc(C3CC3)[nH]c2c1		human male fasted, plasma	oral, 6 mg once daily, cycle 1 day 8		AUC(0-last)	3110 ng·h/mL
N#Cc1ccc2c(c1)[C@H]1CCCN(C(=O)c3ccc4[nH]cnc4c3)[C@H]1C2		human males	360 mg, end of trial		total testosterone level	13.7 nmol/L
COc1ncc(-c2nc3c(n2C(C)C)[C@H](c2ccc(Cl)cc2)N(c2cc(Cl)cn(C)c2=O)C3=O)c(OC)n1	LC-MS/MS	human, plasma	oral, 200 mg, cycle 1 day 1, high-dose arm		Cmax	1170 ng/mL
CC(C)[N+](C)(CCOC(=O)C1c2ccccc2Oc2ccccc21)C(C)C		human, both sexes, whole blood	5 µM, 120 min		remaining compound	7.73%
CCn1cc(C(=O)N2CCOCC2)c(=O)c2cc(NC3Cc4ccccc4C3)cnc21		human, fed	oral suspension, 600 mg single dose, arithmetic mean		AUC(0-inf)	24700 ng·h/mL
O=C(O)c1cccc(C(=O)O)c1		betaine/ethylene glycol DES-water	DES mass fraction 0.20		apparent dissolution enthalpy	2.79 kcal/mol
C=CC(=O)NC1CCN(c2ncc3ncnc(Nc4ccc(Oc5ccc6c(c5)ncn6C)c(C)c4)c3n2)CC1	refers to: psychiatric disorders (SOC)	human male	oral, dose not given, CTCAE on-treatment AEs		adverse events incidence	0%
CC(=O)Nc1ccc(S(=O)(=O)Nc2c(C)nn(-c3ccccc3)c2C)cc1					pKa	8.56
C[C@H]1[C@H]2N(C(=O)CN(C)N2C(=O)NCc2ccccc2)[C@@H](Cc2ccc(OP(=O)(O)O)cc2)C(=O)N1Cc1cccc2cccnc12		human, plasma	intravenous infusion over 4 h, 280 mg/m2, 4 h after dosing		plasma concentration	1470 ng/mL
CO[C@H]1C[C@@H]2CC[C@@H](C)[C@@](O)(O2)C(=O)C(=O)N2CCCC[C@H]2C(=O)O[C@H]([C@H](C)C[C@@H]2CC[C@@H](O)[C@H](OC)C2)CC(=O)[C@H](C)/C=C(\C)[C@@H](O)[C@@H](OC)C(=O)[C@H](C)C[C@H](C)/C=C/C=C/C=C/1C		healthy adult horses	intravenous, 0.06 mg/kg, 4 h		rectal temperature	37.4 ± 0.3 °C
COc1cc2c(CCNC(C)=O)c[nH]c2cc1O	sulfation, substrate	pooled human lung cytosol	50 µM, 30 min, added: 50 mM NaF		specific activity	18 ± 2.18 pmol/min/mg
CCCCc1oc2ccccc2c1C(=O)c1cc(I)c(OCCN(CC)CC)c(I)c1		male Hartley guinea pigs, anaesthetized	intravenous, 10 mg/kg group, baseline before infusion		mean blood pressure	36 ± 0.1 mmHg
CCOc1c([C@H](C)n2nc(C)c3c(N)ncnc32)cc(Cl)c(F)c1[C@@H]1CNC(=O)C1	ECG	previously treated B-cell malignancy patients	oral, 30 mg once daily, baseline QTcF ≤450 ms		observations QTcF >450 ≤480 ms	1.7%
CC1(C)CCC(CN2CCN(c3ccc(C(=O)NS(=O)(=O)c4ccc(NCC5CCOCC5)c([N+](=O)[O-])c4)c(Oc4cnc5[nH]ccc5c4)c3)CC2)=C(c2ccc(Cl)cc2)C1		patients	oral, dose not given, added: triazole antifungals	relative to: without triazoles	C0 fold change	1
CCCCCN1C[C@H](O)[C@@H](O)[C@H](O)[C@@H]1CO		Hexb-/- mouse	300 mg/kg/day		brain/plasma ratio	0.09
CCN1CCN(Cc2ccc(Nc3ncc(F)c(-c4cc(F)c5nc6n(c5c4)[C@H](C)CCC6)n3)nc2)CC1		human, plasma	100 mg single dose, median		Tmax	3.95 h

Structure (SMILES)	assay	system	conditions	how to read	quantity	result
CCC(CC)C(=O)Oc1cccc(C(O)CCN)c1.O=CO (stereo not drawn)	scotopic ERG	BALB/cJ mice	intraperitoneal, 10 mg/kg, 8 h dark adaptation, added: 10,000 lx photobleach, 10 min		ERG b-wave amplitude	311 µV and 371 µV and 297 µV and 344 µV and 316 µV and 290 µV
Cl.[2H]C([2H])([2H])CC(=O)c1cnc(NC(=O)C2CC2)cc1Nc1cccc(-c2ncn(C([2H])([2H])[2H])n2)c1OC	median	human	oral, 17.5 mg single dose, fasted, liquid		Tmax	1.13 h
C[C@H]1CN(C(=O)CC#N)[C@]12CCN(c1ncnc3[nH]ccc13)C2		healthy human	oral, 6 mg single		subjects with Dizziness	0%
CCN(Cc1ccc(F)cc1)c1ccc(CO)c(Cl)c1		F344 rat, male, liver	oral, 100 mg/kg/day, 2 days		bile ducts per triad	8.5 and 8.3 and 6.5
CNc1ccc(-c2nc3ccc(O)cc3s2)cc1 [carbon-11 labelled]	ex vivo biodistribution	APP/PS1 mouse, AD model, lungs	intravenous, 30 min		SUV	0.398 ± 0.22
CCc1cc(C(=O)NC)c2nccc(N3CCc4c(cc(Cn5ccnc5)cc4-c4cn(C)nc4C(F)(F)F)C3=O)c2c1		Sprague Dawley rats	oral, 50 mg/kg once daily, 7 days		serum AST activity	102 ± 12.1 U/L
CCCc1c(-c2ccc(O)cc2)nn(-c2ccc(O)cc2)c1-c1ccc(O)cc1		rat, Long-Evans, female, serum	subcutaneous, 2 mg/kg single dose		aglycone share of AUC(0-inf)	69%
O=C1NCCc2nc(OCc3cccc(F)c3)ccc21	refers to: Catalepsy	Sprague-Dawley rat male	oral, 100 mg/kg, 4 h	direction not given	Irwin test score	0
CC(C)c1nc(N(C)S(C)(=O)=O)nc(-c2ccc(F)cc2)c1/C=C/[C@@H](O)C[C@@H](O)CC(=O)O		Wistar albino rat, both sexes, plasma	oral, 20 mg/kg, 2.5 h		plasma concentration	682 ng/mL
CNC(=O)c1ccc(-c2cnc3ncc(Cc4ccc5ncccc5c4)n3n2)cc1F		human severe hepatic impairment NCI	oral, 200 mg single dose, geometric mean		AUC(0-inf)	5310 ng·h/mL
CCN1/C(=C/C(C)=O)Sc2ccc(F)cc21		cynomolgus monkey	oral, 10 mg/kg, 1 h post-dose		diastolic blood pressure	74 ± 5 mmHg
CC(C)(C(=O)N1CCOc2c(C#N)cncc2C1)C(F)F		human, both sexes	oral, 30 mg single dose		subjects with myalgia TEAE	0%
Cc1ccc([C@@H]2O[C@H](CO)[C@@H](O)[C@H](O)[C@H]2O)cc1Cc1ccc(-c2ccc(F)cc2)s1	refers to: inorganic phosphorus	Japanese type 2 diabetes patients	200 mg, day 3, 24 h urine collection	relative to: baseline	urinary phosphate excretion change	103 mg
Cn1c(C(F)(F)F)cc(=O)n(-c2cc(Oc3cccnc3OCC(=O)O)c(Cl)cc2F)c1=O		beagle dog, female, plasma	oral capsule, 1000 mg/kg/day epyrifenacil, day 1, 90-day study		Tmax	4 h
CC(C)(C)c1ccc(C(O)CCCN2CCC(C(O)(c3ccccc3)c3ccccc3)CC2)cc1 (stereo not drawn)		male Hartley guinea pigs, anaesthetized	intravenous, 1 mg/kg group, baseline before infusion		mean blood pressure	38 ± 0.2 mmHg
COc1cc2c3c(n(CCCN4CCOCC4)c(=O)c2cc1OC)-c1cc2c(cc1C3=O)OCO2		beagle dog, female, plasma	intravenous infusion, 50 mg/m^2, 1 h infusion, vehicle 1		CL	46.7 ± 9.9 L/h/m²
O=C(c1cccnc1-c1ccncc1)N1CCC(O)(Cc2ccccc2)CC1		healthy Japanese adults, plasma	oral, 300 mg twice daily, day 21		AUClast/dose	6.72 ng·h/mL/mg
CC1(C)S[C@@H]2[C@H](NC(=O)[C@H](N)c3ccc(O)cc3)C(=O)N2[C@H]1C(=O)O		male Hartley guinea pigs, anaesthetized	intravenous, 3 mg/kg over 10 min, after infusion		mean blood pressure	39 ± 0.2 mmHg
O=C(Nc1nc2cccc(-c3ccc(CN4CCS(=O)(=O)CC4)cc3)n2n1)C1CC1	refers to: immune system disorders	human rheumatoid arthritis patients	oral, 200 mg once daily, 4 weeks, regardless of relatedness		treatment-emergent adverse events	0%

For quick reference, copied from above:
Structure (SMILES)	assay	system	conditions	how to read	quantity	result
CC(=O)Nc1ccc(S(=O)(=O)Nc2c(C)nn(-c3ccccc3)c2C)cc1					pKa	8.56
CC(C)c1nc(N(C)S(C)(=O)=O)nc(-c2ccc(F)cc2)c1/C=C/[C@@H](O)C[C@@H](O)CC(=O)O		Wistar albino rat, both sexes, plasma	oral, 20 mg/kg, 2.5 h		plasma concentration	682 ng/mL
CC(C)(C)c1ccc(C(O)CCCN2CCC(C(O)(c3ccccc3)c3ccccc3)CC2)cc1 (stereo not drawn)		male Hartley guinea pigs, anaesthetized	intravenous, 1 mg/kg group, baseline before infusion		mean blood pressure	38 ± 0.2 mmHg
C[C@H]1CN(C(=O)CC#N)[C@]12CCN(c1ncnc3[nH]ccc13)C2		healthy human	oral, 6 mg single		subjects with Dizziness	0%
COc1ncc(-c2nc3c(n2C(C)C)[C@H](c2ccc(Cl)cc2)N(c2cc(Cl)cn(C)c2=O)C3=O)c(OC)n1	LC-MS/MS	human, plasma	oral, 200 mg, cycle 1 day 1, high-dose arm		Cmax	1170 ng/mL
CCCc1nc2c(C)cc(-c3nc4ccccc4n3C)cc2n1Cc1ccc(-c2ccccc2C(=O)O)cc1					pKa (basic)	5.8
CCCCCN1C[C@H](O)[C@@H](O)[C@H](O)[C@@H]1CO		Hexb-/- mouse	300 mg/kg/day		brain/plasma ratio	0.09
CC(C)[N+](C)(CCOC(=O)C1c2ccccc2Oc2ccccc21)C(C)C		human, both sexes, whole blood	5 µM, 120 min		remaining compound	7.73%
